Assay results of several laboratories.
Parts stem from different laboratories: compare values within a part only.

Set 1 — technique: RNA Bind-n-Seq; molecule type: RNA; sample: in vitro; tested at: 200 nM; setting: whole 134-nt RNA, ends assumed; added: 150 mM KCl; baseline: input library; reading: higher = stronger binding
Target: Ras GTPase-activating protein-binding protein 1, full length (G3BP1, Homo sapiens, UniProt Q13283)
Chain of UniProt Q13283 (whole entry, looked up): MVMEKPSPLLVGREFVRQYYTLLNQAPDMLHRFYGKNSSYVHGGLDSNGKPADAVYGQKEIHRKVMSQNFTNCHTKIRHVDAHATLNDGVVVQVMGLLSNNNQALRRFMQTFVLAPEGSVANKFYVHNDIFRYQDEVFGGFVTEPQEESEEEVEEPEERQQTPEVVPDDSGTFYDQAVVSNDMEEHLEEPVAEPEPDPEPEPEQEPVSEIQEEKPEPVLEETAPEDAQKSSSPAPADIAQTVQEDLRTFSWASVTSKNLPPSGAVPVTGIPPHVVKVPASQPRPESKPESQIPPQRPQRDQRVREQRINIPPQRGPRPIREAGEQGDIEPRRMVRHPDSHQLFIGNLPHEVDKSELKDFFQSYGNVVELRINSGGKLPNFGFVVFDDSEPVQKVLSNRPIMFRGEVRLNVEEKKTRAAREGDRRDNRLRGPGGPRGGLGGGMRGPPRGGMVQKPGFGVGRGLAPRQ
Sequence | log2 enrichment
GGGAGUUCUACAGUCCGACGAUCAAGUCCUGUGCUACACAUCGUAUGUACCGAAUCAAAUUUAAAUUUUUAAAUUUAAAAAAGUAUUAUGUUACGCCGUUCGGAUCUGCACUUUGGAAUUCUCGGGUGUCAAGG | -1.86
GGGAGUUCUACAGUCCGACGAUCUGGGAGGUGGAUUUUGUUUAUUUUUUUAUCUCAUUUCCAGGGGUGGGAAUUUUUUUUUAAUAUGUGUCAUGAAUAAAGUUGUUUUUGAAAUGGAAUUCUCGGGUGUCAAGG | 0.103
GGGAGUUCUACAGUCCGACGAUCUGGGAGGUGGAUUUUGUUUAUUUUUUUAGCUCAUUUCCAGGGGUGGGAAUUUUUUUUUAAUAUGUGUCAUGUAUAAAGUUGUUUUUGAAAUGGAAUUCUCGGGUGUCAAGG | 0.378

Set 2 — technique: RNA Bind-n-Seq; molecule type: RNA; sample: in vitro; tested at: 365 nM; baseline: no-protein control; reading: higher = stronger binding
Target: RNA binding protein fox-1 homolog 2, RRM domain, GST-SBP tag (RBFOX2, Homo sapiens, UniProt O43251-10, residues 100-194)
Setting: natural RNA segment, single round, ends assumed
Construct (chain): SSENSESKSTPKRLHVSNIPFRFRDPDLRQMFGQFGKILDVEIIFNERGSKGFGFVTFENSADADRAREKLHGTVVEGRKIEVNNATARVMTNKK
Sequence | RBNS enrichment (R)
GGGAGUUCUACAGUCCGACGAUCUGGGAGUGGAGAUGGAGGGAUUAUUGAGCAGAAAAUGAGUUGGAUGGAGAUAAACAGCUCCCAUCCCUGGGUAAUGGAUGGUAAGAUGAUGGAGAUUCCUAAGAUUGGUGUGGAAUUCUCGGGUGCCAA | 2.31
GGGAGUUCUACAGUCCGACGAUCAUGCCUUGGCACUGACACCGUCCUGGCGCUGCCCAAGGCUAUACCUGUGUAGCCCUUUGGAUUCAGCCUGUGGAUGUCCACUCAUCCCUGCAGGCUCCUACUGCCCAUGCUGGAAUUCUCGGGUGCCAA | 0.307
GGGAGUUCUACAGUCCGACGAUCUACUAUUUAUUUUACCCCACACCCUAAGUUGGCAUACUUAUUCCCAGUCUUACUCCUGAUCUCUUUAGUCCCAAUCCUGCCAAUAAAAAGCAUCGUUUAACUUGUUCUAUUGGAAUUCUCGGGUGCCAA | 1.21
GGGAGUUCUACAGUCCGACGAUCUUAGAAGAAGGUGCUGGUGUCACACAUUUUUUUAUAAAAAAUAAAUUUUACAUAGUGAAAUACACCAAGUCUUUUCCGGAGUUAUUACAAAGAGCCUCCUUUCCCCACCUUGGAAUUCUCGGGUGCCAA | 0.483

Set 3 — technique: protein binding microarray; molecule type: double-stranded DNA, one strand shown; sample: in vitro; tested at: not given; baseline: not given; reading: higher = stronger binding
Target: Histone acetyltransferase KAT6A, winged helix 2, GST fusion (KAT6A, Homo sapiens, UniProt Q92794, residues 85-181)
Setting: 8-mer, flanks averaged, mean of 2 arrays, mostly near background
Residues (chain): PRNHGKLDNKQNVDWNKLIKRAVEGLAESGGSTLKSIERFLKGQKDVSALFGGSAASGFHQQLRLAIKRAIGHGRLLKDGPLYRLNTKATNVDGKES
Sequence | E-score
ATAACGAC | -0.094
ACTAGTTG | -0.252
GCTCGTTA | 0.0299
AGCACTAC | 0.0171
GGTTACGA | -0.127
CTAGGCTA | -0.0778

Other studies, line by line
Substance | target | assay | test system | conditions | how to read | endpoint | result
PhoQ, residues 284 288 289 292 302 303 TNASYF | PhoP, residues 12 14 15 18 19 TPWLV (Escherichia coli, UniProt P23836) | Sort-seq, measured: YFP reporter | E. coli | PhoQ-PhoP variant library, added: 10 µM Mg2+ | baseline: high Mg2+ state, higher = stronger signaling | fold induction | 0.994

A few entries again (set 1):
Sequence | log2 enrichment
GGGAGUUCUACAGUCCGACGAUCAAGUCCUGUGCUACACAUCGUAUGUACCGAAUCAAAUUUAAAUUUUUAAAUUUAAAAAAGUAUUAUGUUACGCCGUUCGGAUCUGCACUUUGGAAUUCUCGGGUGUCAAGG | -1.86
GGGAGUUCUACAGUCCGACGAUCUGGGAGGUGGAUUUUGUUUAUUUUUUUAUCUCAUUUCCAGGGGUGGGAAUUUUUUUUUAAUAUGUGUCAUGAAUAAAGUUGUUUUUGAAAUGGAAUUCUCGGGUGUCAAGG | 0.103
